# Results gathered from unrelated publications.
# Each line is one published result; not all experiments were run side by side.
# Cell line: Jurkat
Structure (SMILES),assay,conditions,measurement,result
C=C/C(=C/C(=O)C[C@H](C)C[C@@H](C)CC[C@H](O)[C@H](C)C(=O)/C=C/[C@H](C)[C@@H](C)O)CC,IL-2 production,"20 µM, 24 h, added: anti-CD3/anti-CD28 antibodies",inhibition,98%
O=C1c2cccc3cccc(c23)C12NC(Cc1ccc(O)cc1)C([N+](=O)[O-])C2c1ccc(Cl)cc1 (stereo not shown),"cell growth or viability, MTT",48 h,IC50,38.4 µM
Cc1ccc(C(C)C)cc1.[Cl-].[Cl-].[Ru+2].c1ccc(P(=Nc2cccc3cccnc23)(c2ccccc2)c2ccccc2)cc1,flow cytometry,"concentration not given, added: z-VAD-fmk 50 µM",cells with ΔΨm loss,20%
O=C1c2cccc3cccc(c23)C12NC(Cc1ccc(O)cc1)C([N+](=O)[O-])C2c1ccccc1 (stereo not shown),annexin V-FITC/PI flow cytometry,"IC50, 24 h",apoptotic cells,> 89%
C=C/C(=C/C(=O)C[C@H](C)C[C@@H](C)CC[C@H](O)[C@H](C)C(=O)CC(O)[C@H](C)[C@@H](C)OC(=O)CCC1=C(C)C(=O)OC1=O)CC (stereo partly shown),IL-2 production,"20 µM, 24 h, added: anti-CD3/anti-CD28 antibodies",inhibition,98%
Cc1[nH][n+]([Pt-2]([Cl])([n+]2[nH]c(C)c(CSCc3ccccc3)c2C)[n+]2[nH]c(C)c(CSCc3ccccc3)c2C)c(C)c1CSCc1ccccc1.[Cl-],annexin V/7-AAD flow cytometry,1.5 µM,apoptotic cells,37.6%
Cc1ccc(C(C)C)cc1.O=C(N=P(c1ccccc1)(c1ccccc1)c1ccccc1)c1ccccn1.[Cl-].[Cl-].[Ru+2],flow cytometry,concentration not given,cells with ΔΨm loss,80%
CC(C)C[C@@H]1NC(=O)[C@H](CC(C)C)NC(=O)[C@H](Cc2ccccc2)NC(=O)[C@@H]2CSSC[C@@H](C(=O)O)NC(=O)[C@H](CSSC[C@H](N)C(=O)N3CCC[C@H]3C(=O)N2)NC(=O)CNC1=O,inhibitor,"concentration not given, added: von Willebrand factor",cell adhesion,inhibited
C1=CCCC=CCC1.F[P-](F)(F)(F)(F)F.[Pt+][c]1ccccc1P(=Nc1ccccc1)(c1ccccc1)c1ccccc1,,"concentration not given, 24 h, added: z-VAD-fmk",cells with decreased ΔΨm,32%
C(=C/c1ccccc1)/c1ccccc1,"apoptosis, Hoechst nuclear staining",24 h,EC50,50 µM

# For quick reference, copied from above:
Structure (SMILES),assay,conditions,measurement,result
O=C1c2cccc3cccc(c23)C12NC(Cc1ccc(O)cc1)C([N+](=O)[O-])C2c1ccc(Cl)cc1 (stereo not shown),"cell growth or viability, MTT",48 h,IC50,38.4 µM
